Measured values collected from several papers.
Compare with care: the assays were run in different laboratories. Values joined by “and” are separate records of one study, mostly repeats; a detail may differ. ± marks the error that the study gave.
Urea transporter 1: Urea transporter 1 (Homo sapiens, UniProt Q13336)
Chain of UniProt Q13336 (whole entry, looked up): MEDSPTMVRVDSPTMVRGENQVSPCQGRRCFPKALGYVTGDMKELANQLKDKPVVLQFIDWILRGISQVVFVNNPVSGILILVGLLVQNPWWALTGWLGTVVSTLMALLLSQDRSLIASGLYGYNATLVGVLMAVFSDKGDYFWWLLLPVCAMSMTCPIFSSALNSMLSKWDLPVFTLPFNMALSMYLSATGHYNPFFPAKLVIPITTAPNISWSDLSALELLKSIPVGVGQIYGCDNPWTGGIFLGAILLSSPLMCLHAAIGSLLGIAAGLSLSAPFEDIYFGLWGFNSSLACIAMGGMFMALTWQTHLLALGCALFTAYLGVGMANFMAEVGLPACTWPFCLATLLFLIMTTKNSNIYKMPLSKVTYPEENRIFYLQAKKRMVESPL
Vesicular acetylcholine transporter: Vesicular acetylcholine transporter (Rattus norvegicus, UniProt Q62666)
Chain of UniProt Q62666 (whole entry, looked up): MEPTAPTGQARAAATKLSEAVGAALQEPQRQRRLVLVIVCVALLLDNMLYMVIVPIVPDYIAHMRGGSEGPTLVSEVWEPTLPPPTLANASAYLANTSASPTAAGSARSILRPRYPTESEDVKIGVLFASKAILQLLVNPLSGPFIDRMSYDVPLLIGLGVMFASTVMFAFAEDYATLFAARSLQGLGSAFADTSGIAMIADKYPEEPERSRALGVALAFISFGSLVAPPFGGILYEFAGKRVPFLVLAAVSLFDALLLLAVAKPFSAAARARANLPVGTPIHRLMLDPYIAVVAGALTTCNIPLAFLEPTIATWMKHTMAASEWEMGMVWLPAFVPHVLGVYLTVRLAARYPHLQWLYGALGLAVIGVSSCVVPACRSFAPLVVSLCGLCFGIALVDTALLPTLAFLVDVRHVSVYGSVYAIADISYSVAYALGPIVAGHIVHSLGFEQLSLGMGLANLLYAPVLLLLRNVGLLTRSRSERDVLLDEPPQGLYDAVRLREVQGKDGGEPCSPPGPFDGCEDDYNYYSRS
DNA polymerase III PolC V741I: DNA polymerase III PolC (Clostridioides difficile, UniProt Q18BG8, V741I)
ADRA1A: Alpha-1A adrenergic receptor (ADRA1A, Homo sapiens, UniProt P35348)
Chain of UniProt P35348 (whole entry, looked up): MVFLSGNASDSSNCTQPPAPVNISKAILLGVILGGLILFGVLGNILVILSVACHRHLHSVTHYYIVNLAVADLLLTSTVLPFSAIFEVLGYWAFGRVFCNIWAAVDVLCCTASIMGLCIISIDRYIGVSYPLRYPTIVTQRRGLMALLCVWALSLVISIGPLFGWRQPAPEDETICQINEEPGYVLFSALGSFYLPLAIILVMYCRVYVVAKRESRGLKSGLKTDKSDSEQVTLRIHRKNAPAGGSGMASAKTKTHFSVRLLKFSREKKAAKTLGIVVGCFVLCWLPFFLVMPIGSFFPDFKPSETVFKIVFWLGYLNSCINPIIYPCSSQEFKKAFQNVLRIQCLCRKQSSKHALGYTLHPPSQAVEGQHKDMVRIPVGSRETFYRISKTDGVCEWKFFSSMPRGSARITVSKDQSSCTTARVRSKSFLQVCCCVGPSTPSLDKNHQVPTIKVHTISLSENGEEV
Chain of UniProt P18508 (whole entry, looked up): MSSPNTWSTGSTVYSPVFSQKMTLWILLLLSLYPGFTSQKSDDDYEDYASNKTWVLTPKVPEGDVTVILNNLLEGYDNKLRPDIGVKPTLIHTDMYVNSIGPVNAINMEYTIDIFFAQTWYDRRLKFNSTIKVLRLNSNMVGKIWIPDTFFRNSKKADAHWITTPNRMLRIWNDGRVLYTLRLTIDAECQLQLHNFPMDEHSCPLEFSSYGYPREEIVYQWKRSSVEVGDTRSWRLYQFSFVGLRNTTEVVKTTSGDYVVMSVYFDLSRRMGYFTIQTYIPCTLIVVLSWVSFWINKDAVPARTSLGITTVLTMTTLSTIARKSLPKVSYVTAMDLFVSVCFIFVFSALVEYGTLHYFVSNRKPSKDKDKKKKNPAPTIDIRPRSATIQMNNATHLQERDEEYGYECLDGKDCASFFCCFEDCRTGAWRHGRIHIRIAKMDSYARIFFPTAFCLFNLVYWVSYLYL
Chain of UniProt P0AF12 (whole entry, looked up): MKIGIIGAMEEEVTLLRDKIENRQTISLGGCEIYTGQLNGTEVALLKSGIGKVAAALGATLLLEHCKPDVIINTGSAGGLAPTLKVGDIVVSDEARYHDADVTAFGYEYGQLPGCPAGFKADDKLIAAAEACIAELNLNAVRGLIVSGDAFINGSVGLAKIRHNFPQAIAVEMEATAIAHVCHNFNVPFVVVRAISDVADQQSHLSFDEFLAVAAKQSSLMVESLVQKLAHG
Chain of UniProt P42264 (whole entry, looked up): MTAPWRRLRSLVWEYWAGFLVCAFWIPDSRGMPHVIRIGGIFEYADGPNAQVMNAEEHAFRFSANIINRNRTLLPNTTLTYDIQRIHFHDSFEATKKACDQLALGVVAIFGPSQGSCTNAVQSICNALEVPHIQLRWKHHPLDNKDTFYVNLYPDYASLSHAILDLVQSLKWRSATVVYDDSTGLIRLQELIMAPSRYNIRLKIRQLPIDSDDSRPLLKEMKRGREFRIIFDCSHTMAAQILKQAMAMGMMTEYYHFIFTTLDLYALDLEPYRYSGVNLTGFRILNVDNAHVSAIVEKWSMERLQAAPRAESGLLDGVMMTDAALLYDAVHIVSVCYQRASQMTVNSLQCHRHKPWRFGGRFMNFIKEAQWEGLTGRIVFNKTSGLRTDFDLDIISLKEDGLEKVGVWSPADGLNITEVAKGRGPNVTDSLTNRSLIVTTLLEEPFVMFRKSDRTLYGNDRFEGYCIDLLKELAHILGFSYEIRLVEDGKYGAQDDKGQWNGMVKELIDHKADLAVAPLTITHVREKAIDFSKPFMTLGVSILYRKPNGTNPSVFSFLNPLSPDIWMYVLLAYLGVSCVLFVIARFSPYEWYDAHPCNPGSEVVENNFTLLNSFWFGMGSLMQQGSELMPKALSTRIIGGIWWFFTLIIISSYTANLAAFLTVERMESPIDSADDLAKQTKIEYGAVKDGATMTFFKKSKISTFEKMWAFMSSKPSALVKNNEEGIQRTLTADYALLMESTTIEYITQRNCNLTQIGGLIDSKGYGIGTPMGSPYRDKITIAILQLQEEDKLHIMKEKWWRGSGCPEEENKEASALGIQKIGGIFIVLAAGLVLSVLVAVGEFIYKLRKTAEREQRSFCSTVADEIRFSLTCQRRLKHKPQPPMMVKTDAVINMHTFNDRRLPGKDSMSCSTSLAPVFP
Chain of UniProt P62813 (whole entry, looked up): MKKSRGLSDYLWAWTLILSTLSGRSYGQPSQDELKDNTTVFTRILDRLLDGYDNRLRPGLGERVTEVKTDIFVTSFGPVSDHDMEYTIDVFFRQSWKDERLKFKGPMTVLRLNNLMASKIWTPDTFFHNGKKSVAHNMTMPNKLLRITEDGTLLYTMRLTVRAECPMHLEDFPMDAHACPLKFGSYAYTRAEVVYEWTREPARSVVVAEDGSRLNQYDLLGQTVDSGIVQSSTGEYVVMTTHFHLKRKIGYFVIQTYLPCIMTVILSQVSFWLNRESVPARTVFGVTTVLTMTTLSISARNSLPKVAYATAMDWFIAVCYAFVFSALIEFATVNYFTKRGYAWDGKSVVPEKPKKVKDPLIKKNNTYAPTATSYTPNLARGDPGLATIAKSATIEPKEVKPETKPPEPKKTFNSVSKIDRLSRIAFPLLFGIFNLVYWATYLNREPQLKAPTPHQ
Chain of UniProt P30191 (whole entry, looked up): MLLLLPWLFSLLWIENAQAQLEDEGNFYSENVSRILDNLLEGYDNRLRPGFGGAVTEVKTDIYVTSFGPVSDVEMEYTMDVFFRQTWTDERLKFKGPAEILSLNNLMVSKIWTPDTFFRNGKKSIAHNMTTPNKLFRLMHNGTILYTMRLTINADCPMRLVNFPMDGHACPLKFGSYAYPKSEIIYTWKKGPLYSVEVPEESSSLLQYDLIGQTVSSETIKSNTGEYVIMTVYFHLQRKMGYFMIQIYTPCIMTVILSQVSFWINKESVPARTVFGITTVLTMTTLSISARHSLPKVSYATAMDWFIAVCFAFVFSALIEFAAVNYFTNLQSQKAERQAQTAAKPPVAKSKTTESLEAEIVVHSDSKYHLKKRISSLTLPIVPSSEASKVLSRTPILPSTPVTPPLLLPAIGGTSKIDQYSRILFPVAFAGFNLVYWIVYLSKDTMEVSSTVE
Chain of UniProt P47898 (whole entry, looked up): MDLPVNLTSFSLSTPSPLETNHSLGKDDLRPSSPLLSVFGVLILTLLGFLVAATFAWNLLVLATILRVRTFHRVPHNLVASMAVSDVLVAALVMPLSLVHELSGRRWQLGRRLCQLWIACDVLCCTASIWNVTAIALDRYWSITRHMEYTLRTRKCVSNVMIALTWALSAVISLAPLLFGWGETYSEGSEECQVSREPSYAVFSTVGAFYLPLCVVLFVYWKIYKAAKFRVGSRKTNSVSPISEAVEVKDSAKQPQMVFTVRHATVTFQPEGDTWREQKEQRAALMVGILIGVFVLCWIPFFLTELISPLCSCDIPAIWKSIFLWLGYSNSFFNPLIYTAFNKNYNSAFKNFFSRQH
Chain of UniProt P05181 (whole entry, looked up): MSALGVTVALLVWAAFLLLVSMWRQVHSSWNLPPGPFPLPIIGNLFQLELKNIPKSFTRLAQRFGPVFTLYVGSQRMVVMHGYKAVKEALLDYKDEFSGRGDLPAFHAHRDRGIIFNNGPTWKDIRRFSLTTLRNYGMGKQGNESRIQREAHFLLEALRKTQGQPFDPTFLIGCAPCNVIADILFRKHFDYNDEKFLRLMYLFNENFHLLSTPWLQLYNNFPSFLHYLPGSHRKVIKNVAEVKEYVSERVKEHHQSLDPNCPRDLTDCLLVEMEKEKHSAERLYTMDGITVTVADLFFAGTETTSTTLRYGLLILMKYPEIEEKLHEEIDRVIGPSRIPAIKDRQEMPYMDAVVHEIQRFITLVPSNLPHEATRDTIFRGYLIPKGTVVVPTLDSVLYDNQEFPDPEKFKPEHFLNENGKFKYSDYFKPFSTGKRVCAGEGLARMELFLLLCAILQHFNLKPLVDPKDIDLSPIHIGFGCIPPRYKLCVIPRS

| Compound | target | test | test system | setting | Ki |
| --- | --- | --- | --- | --- | --- |
| N[C@@H](Cc1cc(I)c(O)c(I)c1)C(=O)O | Cytochrome P450 2E1 (CYP2E1, Homo sapiens, UniProt P05181) | p-nitrophenol hydroxylation, inhibitor | baculosomes | 10 min, with additive 100 µM | 4.9 µM |
| [O]=[V]([OH])([OH])[OH] | Uncharacterized protein (Trypanosoma brucei, UniProt Q38AT7) |  |  |  | 54 µM |
| NC(CC1(C(=O)O)CC2OC(CO)C(O)C(O)C2O1)C(=O)O (stereo not shown) | Glutamate receptor ionotropic, kainate 3 (Rattus norvegicus, UniProt P42264) | binding, [3H]kainate displacement | HEK293T/17 membranes | with: [3H]kainate | > 10 µM |
| C=CC(=O)OCCCC | uncharacterized protein (Bradysia odoriphaga, UniProt A0A2S0X9G4) | binding, competitive fluorescence displacement |  |  | > 50 µM |
| CC(=N)S | Urea transporter 1 | urea transport inhibition |  | with: thiourea | 7000 µM |
| NC(=O)c1ccc[n+]([C@@H]2O[C@H](COP(=O)(O)OP(=O)(O)OC[C@H]3O[C@@H](n4cnc5c(N)ncnc54)[C@H](OP(=O)(O)O)[C@@H]3O)[C@@H](O)[C@H]2O)c1 | chnB (Rhodococcus sp. HI-31, UniProt C0STX7, L145D) |  |  |  | < 100 µM |
| NC(=O)C(Cl)Cl | Urea transporter 1 | urea transport inhibition |  | with: thiourea | 15000 µM |
| Cc1ccc2c(c1)C1(C=C2)CCN(C2Cc3ccccc3CC2O)CC1 (racemic) | Vesicular acetylcholine transporter | radioligand binding | PC12 expressing VAChT | with: [3H]vesamicol | 0.0072 ± 0.0012 µM |
| COc1ccc(N=Nc2ccc3[nH]cc(CCN(C)C)c3c2)cc1 | 5-hydroxytryptamine receptor 5A (HTR5A, Homo sapiens, UniProt P47898) | binding, radioligand binding |  | ambient light | 0.951 µM |
| COc1ccccc1-n1nc2c3cc(Cl)ccc3[nH]cc-2c1=O | Gabrg2/Gabra1, α1+/γ2− interface (Rattus norvegicus, UniProt P18508+P62813) |  | rat cerebellar membranes | with: [3H]flunitrazepam | 0.0078 ± 0.0006 µM |
| CCc1cc(Nc2cc(=O)[nH]c(=O)[nH]2)ccc1C | DNA polymerase III PolC V741I | enzyme activity, inhibitor |  | truncated, dGTP omitted, 4% DMSO | 1.5 µM |
| NC(=O)CF | Urea transporter 1 | urea transport inhibition |  | with: thiourea | 15000 µM |
| CC(C)C[C@H](NC(=O)CNC(=O)[C@H](C)NC(=O)c1ccc(S(=O)(=O)NC[C@H]2O[C@@H](C)[C@@H](O)[C@@H](O)[C@@H]2O)cc1)C(=O)N[C@@H](C)C(=O)N1CCN(c2cc3c(cc2F)c(=O)c(C(=O)O)cn3C2CC2)CC1 | fucose-binding lectin LecB (Pseudomonas aeruginosa, UniProt A0A0H2ZE85) | binding, competitive fluorescence polarization |  |  | 0.36 ± 0.12 µM |
| CCCCCCSC[C@H]1CN(Cc2c[nH]c3c(N)ncnc23)C[C@@H]1O | 5'-methylthioadenosine/S-adenosylhomocysteine nucleosidase (mtnN, Escherichia coli, UniProt P0AF12) |  |  |  | 1.86e-05 µM and 1.9e-05 µM |
| COc1cccc(-n2nc3c4cc(Cl)ccc4[nH]cc-3c2=O)c1 | Gabrg2/Gabra6, α6+/γ2− interface (Rattus norvegicus, UniProt P18508+P30191) |  | rat cerebellar membranes | with: [3H]Ro15-4513, diazepam 50 mM | 0.0154 ± 0.0002 µM |
| COc1cc2c(cc1OC)-c1c(OC)c(OC)cc3c1[C@H](C2)N(C)CC3 | ADRA1A | radioligand binding |  |  | 0.421 µM |
| CCOCCn1cnc2nc(NCc3ccc(Cl)c(Cl)c3)[nH]c(=O)c21 | DNA polymerase III PolC V741I | enzyme activity, inhibitor |  | truncated, dGTP omitted, 4% DMSO | 1.22 µM |
| OC1Cc2ccccc2CC1N1CCC2(CC1)C(Br)=Cc1ccccc12 (racemic) | Vesicular acetylcholine transporter | radioligand binding | PC12 expressing VAChT | with: [3H]vesamicol | 0.025 ± 0.002 µM |
| COc1cc2c3c(c1OC)-c1c(cccc1OC)CC3N(C)CC2 (racemic) | ADRA1A | radioligand binding |  |  | 0.809 µM |

Repeated from above:
| Compound | target | test | test system | setting | Ki |
| --- | --- | --- | --- | --- | --- |
| Cc1ccc2c(c1)C1(C=C2)CCN(C2Cc3ccccc3CC2O)CC1 (racemic) | Vesicular acetylcholine transporter | radioligand binding | PC12 expressing VAChT | with: [3H]vesamicol | 0.0072 ± 0.0012 µM |
| N[C@@H](Cc1cc(I)c(O)c(I)c1)C(=O)O | Cytochrome P450 2E1 (CYP2E1, Homo sapiens, UniProt P05181) | p-nitrophenol hydroxylation, inhibitor | baculosomes | 10 min, with additive 100 µM | 4.9 µM |
